Experimental data of several laboratories.
Protocols differ between the studies behind these lines. Several values in a cell are separate wells, animals, samples, runs or records. ± marks the error that the study gave.
Nuclear receptor subfamily 2 group C member 2 ligand-binding domain: Nuclear receptor subfamily 2 group C member 2, ligand-binding domain (Homo sapiens, UniProt P49116)
Sequence of UniProt P11247 (whole entry, looked up): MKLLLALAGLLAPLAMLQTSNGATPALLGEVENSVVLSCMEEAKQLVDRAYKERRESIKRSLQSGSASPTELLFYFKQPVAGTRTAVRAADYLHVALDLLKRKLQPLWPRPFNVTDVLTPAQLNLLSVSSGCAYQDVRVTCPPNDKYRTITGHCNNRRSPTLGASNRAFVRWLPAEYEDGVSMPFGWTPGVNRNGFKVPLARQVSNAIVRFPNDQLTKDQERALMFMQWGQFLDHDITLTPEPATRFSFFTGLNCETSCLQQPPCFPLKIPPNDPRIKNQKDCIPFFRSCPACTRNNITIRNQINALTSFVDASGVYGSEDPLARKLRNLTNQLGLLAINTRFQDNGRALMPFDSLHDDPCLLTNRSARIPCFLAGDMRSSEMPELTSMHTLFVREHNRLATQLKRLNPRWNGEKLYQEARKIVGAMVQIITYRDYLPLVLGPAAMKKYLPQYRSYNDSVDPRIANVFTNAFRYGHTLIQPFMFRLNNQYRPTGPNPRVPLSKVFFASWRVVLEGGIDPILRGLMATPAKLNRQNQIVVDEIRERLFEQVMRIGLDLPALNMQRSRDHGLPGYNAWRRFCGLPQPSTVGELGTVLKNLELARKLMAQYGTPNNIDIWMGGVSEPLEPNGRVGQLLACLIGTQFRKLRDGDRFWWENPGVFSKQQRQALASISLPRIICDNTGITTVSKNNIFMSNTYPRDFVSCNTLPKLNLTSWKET
Sequence of UniProt P49116 (whole entry, looked up): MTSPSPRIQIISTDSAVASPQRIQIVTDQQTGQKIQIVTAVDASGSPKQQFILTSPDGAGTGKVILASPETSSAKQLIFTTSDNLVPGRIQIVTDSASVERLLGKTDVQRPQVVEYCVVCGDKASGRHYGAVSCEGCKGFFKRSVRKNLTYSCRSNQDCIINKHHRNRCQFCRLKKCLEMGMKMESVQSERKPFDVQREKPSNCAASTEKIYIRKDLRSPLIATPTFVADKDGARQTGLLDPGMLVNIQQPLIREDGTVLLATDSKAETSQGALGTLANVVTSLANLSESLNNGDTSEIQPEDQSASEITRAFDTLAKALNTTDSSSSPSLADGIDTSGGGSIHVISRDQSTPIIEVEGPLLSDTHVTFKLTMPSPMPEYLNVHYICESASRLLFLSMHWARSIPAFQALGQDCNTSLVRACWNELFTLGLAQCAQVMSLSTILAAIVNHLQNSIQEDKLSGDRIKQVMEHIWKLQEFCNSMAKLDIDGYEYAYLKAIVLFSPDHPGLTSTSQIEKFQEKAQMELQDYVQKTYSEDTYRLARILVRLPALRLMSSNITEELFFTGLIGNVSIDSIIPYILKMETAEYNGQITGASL
Sequence of UniProt Q16774 (whole entry, unmodified, looked up): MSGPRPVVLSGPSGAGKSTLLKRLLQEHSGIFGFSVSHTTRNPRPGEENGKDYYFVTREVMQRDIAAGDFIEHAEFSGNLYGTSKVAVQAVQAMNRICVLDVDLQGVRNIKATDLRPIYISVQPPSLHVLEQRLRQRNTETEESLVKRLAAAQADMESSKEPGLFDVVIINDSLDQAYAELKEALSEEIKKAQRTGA
Sequence of UniProt P04746 (whole entry, looked up): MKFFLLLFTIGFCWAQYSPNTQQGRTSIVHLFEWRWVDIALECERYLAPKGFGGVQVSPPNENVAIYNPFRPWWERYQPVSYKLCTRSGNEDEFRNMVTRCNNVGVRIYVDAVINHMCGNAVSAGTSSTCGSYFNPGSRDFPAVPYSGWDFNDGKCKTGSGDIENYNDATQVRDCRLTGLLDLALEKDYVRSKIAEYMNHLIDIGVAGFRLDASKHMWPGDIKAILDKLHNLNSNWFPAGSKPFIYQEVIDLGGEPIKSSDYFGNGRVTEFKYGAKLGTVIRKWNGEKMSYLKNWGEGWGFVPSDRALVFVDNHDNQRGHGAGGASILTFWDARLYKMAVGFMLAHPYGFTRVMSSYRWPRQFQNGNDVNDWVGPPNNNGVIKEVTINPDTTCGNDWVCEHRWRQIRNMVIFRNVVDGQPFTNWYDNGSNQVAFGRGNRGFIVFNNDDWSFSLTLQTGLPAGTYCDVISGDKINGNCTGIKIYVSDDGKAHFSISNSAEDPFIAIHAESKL
Sequence of UniProt O75925 (whole entry, looked up): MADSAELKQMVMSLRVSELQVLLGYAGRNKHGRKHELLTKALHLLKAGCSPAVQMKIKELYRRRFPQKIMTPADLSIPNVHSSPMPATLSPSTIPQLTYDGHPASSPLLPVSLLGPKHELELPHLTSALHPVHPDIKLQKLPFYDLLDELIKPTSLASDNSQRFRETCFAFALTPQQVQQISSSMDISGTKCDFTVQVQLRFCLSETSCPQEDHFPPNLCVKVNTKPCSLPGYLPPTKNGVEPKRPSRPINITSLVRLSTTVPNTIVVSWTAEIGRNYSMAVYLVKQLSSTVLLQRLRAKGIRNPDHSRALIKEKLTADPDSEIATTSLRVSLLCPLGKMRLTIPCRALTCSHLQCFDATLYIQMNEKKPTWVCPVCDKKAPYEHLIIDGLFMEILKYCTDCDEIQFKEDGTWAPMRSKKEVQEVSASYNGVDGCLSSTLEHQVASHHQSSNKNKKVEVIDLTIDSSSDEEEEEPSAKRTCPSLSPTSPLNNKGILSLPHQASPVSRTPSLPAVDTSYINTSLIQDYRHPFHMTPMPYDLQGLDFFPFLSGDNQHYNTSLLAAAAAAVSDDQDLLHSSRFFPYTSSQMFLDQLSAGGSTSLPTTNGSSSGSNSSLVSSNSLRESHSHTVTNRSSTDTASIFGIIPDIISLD

SMILES | tested on | assay | test system | setting | scale | quantity | value
CC[C@H](C)[C@H](NC(=O)[C@H](CCC(=O)O)NC(=O)[C@H](CCC(=O)O)NC(=O)[C@@H]1CCCN1C(=O)[C@H](CC(=O)O)NC(=O)[C@H](C)NC(=O)[C@H](CCC(N)=O)NC(=O)[C@@H](NC(=O)[C@H](C)NC(=O)[C@@H](NC(=O)[C@H](CO)NC(=O)[C@@H](NC(=O)[C@H](CCCCN)NC(=O)[C@@H](N)Cc1ccc(O)cc1)[C@@H](C)O)C(C)C)[C@@H](C)O)C(=O)N[C@H](C(=O)N[C@H](C(=O)N[C@@H](CC(C)C)C(=O)N[C@@H](COP(=O)(O)O)C(=O)N[C@@H](CC(=O)O)C(=O)N[C@@H](COP(=O)(O)O)C(=O)N[C@@H](CC(=O)O)C(=O)O)C(C)C)[C@@H](C)CC | Small ubiquitin-related modifier 1, residues 17-97 (Homo sapiens, UniProt P63165, C52A) | isothermal titration calorimetry |  | pH 7.4, N-terminally truncated SUMO1 |  | -TΔS | -11.2 ± 0.5 kcal/mol
C[C@H](N)C(=O)N[C@@H](CCCNC(=N)N)C(=O)N[C@H](C(=O)N[C@@H](C)C(=O)N[C@@H](CCC(N)=O)C(=O)N[C@H](C(=O)N[C@@H](C)C(=O)N[C@@H](CCCNC(=N)N)C(=O)N[C@@H](CCCCN)C(=O)N[C@@H](CO)C(=O)O)[C@@H](C)O)[C@@H](C)O | Transcriptional regulator ATRX (ATRX, Homo sapiens, UniProt P46100, F284Y/K251R) | isothermal titration calorimetry |  | pH 7.5, 25.0 °C |  | binding free energy | -4.81 kcal/mol
C=CC(=O)N1CCC(C(=O)NCC(=O)N2CCN(c3nc(-c4cnc(N)nc4C(F)F)nc(N4CCOCC4)n3)CC2)CC1 | EGFR (Homo sapiens, UniProt P00533, T790M) | KINOMEscan |  | 1 µM |  | remaining binding | 90%
O=C(COP(=O)(O)O)[C@@H](O)[C@H](O)[C@H](O)COP(=O)(O)O | Myb-binding protein 1A (Homo sapiens, UniProt Q9BQG0) | thermal proteome profiling, item: MYBBP1A | HepG2 cell lysate | concentration not given, 57 over 37 °C, mean | relative to: compound over control | thermal stability ratio | 0.624
COc1c(O[C@@H]2O[C@H](CO)[C@@H](O)[C@H](O)[C@H]2O)c(C)cc2c1C(=O)c1c(O)cccc1C2=O | HepaRG co-cultured with HK-2 | MTT |  | 33.33 µM, 24 h | relative to: untreated control | cell viability | 74.5 ± 10.5%
CC(=O)N[C@@H](COP(=O)(O)O)C(=O)N1CCC[C@H]1C(=O)N[C@H](C(=O)N[C@@H](Cc1ccccc1)C(N)=O)[C@@H](C)O | Breast cancer type 1 susceptibility protein, tandem BRCT domains (BRCA1, Homo sapiens, UniProt P38398) | binding, isothermal titration calorimetry |  | BRCT domain, BACH1 peptide |  | −TΔS | 6.3 ± 1.1 kcal/mol
C=CC(=O)N1CCC[C@@H](n2nc(-c3ccc(Oc4ccccc4)cc3)c3c(N)ncnc32)C1 | EPHA4 (Homo sapiens, UniProt P54764) |  |  | 10 µM |  | remaining activity | 133%
Oc1ccc([C@@H]2c3c(O)cc(O)cc3[C@@H]3c4c(cc(O)c5c4[C@@H]2[C@H](c2ccc(O)cc2)[C@H]5c2cc(O)cc4c2[C@@H](c2cc(O)cc(O)c2)[C@H](c2ccc(O)cc2)O4)O[C@H]3c2ccc(O)cc2)cc1 | Pancreatic alpha-amylase (Homo sapiens, UniProt P04746) | enzyme activity |  | 0.5 µM |  | Vmax | 1420 ± 86 µmol/min
C[S+](CC[C@H](N)C(=O)O)C[C@H]1O[C@@H](n2cnc3c(N)ncnc32)[C@H](O)[C@@H]1O (stereo partly shown) | O-methyltransferase (Sorghum bicolor, UniProt A0A1B6PFV1) | ITC |  | concentration not given, added: PTR+ |  | binding stoichiometry | 2.14 ± 0.922
CCCC[C@H]1CN(c2cccc(OC(F)(F)F)c2)C(=O)CN1Cc1cncn1Cc1ccc(Oc2ccccc2)c(C#N)c1 | Cryptococcus neoformans farnesyltransferase | enzyme activity, inhibitor, fluorescence |  | added: 1 µM FPP, 0.5 µM dansylated peptide |  | IC50 | 210 ± 100 nM
CC(C)OCCn1c(=S)[nH]c(=O)c2[nH]ccc21 | Myeloperoxidase (Mus musculus, UniProt P11247) |  | mouse, zymosan or thioglycolate peritonitis, peritoneal fluid | 30 mg/kg | relative to: peritonitis vehicle | MPO activity | 108% and 91.4% and 116%
CC(=O)c1c(C)cc2cc(O)cc(O[C@@H]3O[C@H](CO)[C@@H](O)[C@H](O)[C@H]3O)c2c1O | HepaRG co-cultured with HK-2 | MTT |  | 33.33 µM, 24 h | relative to: untreated control | cell viability | 104 ± 6.22%
CCOC(=O)c1ccc(C#Cc2ccc3c(c2)C(C)(C)CCS3)nc1 | Nuclear receptor subfamily 2 group C member 2 ligand-binding domain | SPR imaging |  | 600 nM |  | koff | 1.06e-06 s⁻¹
CC[C@H](C)[C@@H]1NC(=O)[C@H]([C@@H](C)CC)NC(=O)[C@@H](Cc2ccc(O)cc2)NC(=O)CSC[C@@H](C(N)=O)NC(=O)[C@H](CCCNC(=N)N)NC(=O)[C@H](CCCCN)NC(=O)[C@H](CC(C)C)NC(=O)[C@H](CO)NC(=O)[C@H](CO)NC(=O)[C@H](CC(C)C)NC(=O)[C@H](Cc2ccccc2)NC(=O)[C@H](C(C)C)NC(=O)CNC(=O)[C@H](CC(C)C)NC(=O)[C@@H]2CCCN2C(=O)[C@H]([C@@H](C)O)NC(=O)[C@H](CC(=O)O)NC1=O | VPS35/VPS29 (Homo sapiens, UniProt Q96QK1+Q9UBQ0) | binding, ITC |  | 25 °C, heterodimer |  | ΔG | -9.5 ± 0.09 kcal/mol
COc1cccc2c(Nc3ccc4[nH]c(C(=O)N/N=C/c5ccc(SC)cc5)cc4c3)cc(C)nc12 | COS-7 |  |  | 10 µM, 24 h, 0.1% DMSO, unit not given | relative to: vehicle control | apoptotic cells | 41.2 ± 4.63
COc1ccccc1OCC(O)COC(N)=O (stereo not shown) | Nuclear receptor subfamily 2 group C member 2 ligand-binding domain | SPR imaging |  | 600 nM |  | koff | 8.8e-07 s⁻¹
Nc1ncnc2c1ncn2[C@@H]1O[C@H](COP(=O)(O)OP(=O)(O)O)[C@@H](O)[C@H]1O | GUK1 (Homo sapiens, UniProt Q16774) | binding, isothermal titration calorimetry |  | molar ratio 3.053, fitted curve |  | ΔH | -0.153 kcal/mol
CCCCCCCC(=O)c1c(O)cc(O)cc1CC(=O)OCC | COS-7 |  |  | 10 µM, 24 h, 0.1% DMSO, unit not given | relative to: vehicle control | confluence | 1.06 ± 0.02
CC1CCCN(C(=O)c2cc3ncccn3n2)C1 (stereo not shown) | E3 SUMO-protein ligase PIAS1 (PIAS1, Homo sapiens, UniProt O75925) | binding, affinity selection mass spectrometry |  |  | relative to: other proteins in batch | fold enrichment | 1.09
